Measured values from different studies.
Parts stem from different laboratories: compare values within a part only.

Block 1 — technique: EMSA with sequencing; molecule type: double-stranded DNA, one strand shown; matrix: in vitro; tested at: 10 and 20 nM; relative to: negative control set to 0; direction: higher = stronger binding; endpoint: normalised bound fraction
Target: Hepatocyte nuclear factor 3-alpha (Foxa1, Mus musculus, UniProt P35582, residues 1-468, full length assumed)
Notes: whole designed probe, mean of two concentrations, ends assumed
Target sequence (chain): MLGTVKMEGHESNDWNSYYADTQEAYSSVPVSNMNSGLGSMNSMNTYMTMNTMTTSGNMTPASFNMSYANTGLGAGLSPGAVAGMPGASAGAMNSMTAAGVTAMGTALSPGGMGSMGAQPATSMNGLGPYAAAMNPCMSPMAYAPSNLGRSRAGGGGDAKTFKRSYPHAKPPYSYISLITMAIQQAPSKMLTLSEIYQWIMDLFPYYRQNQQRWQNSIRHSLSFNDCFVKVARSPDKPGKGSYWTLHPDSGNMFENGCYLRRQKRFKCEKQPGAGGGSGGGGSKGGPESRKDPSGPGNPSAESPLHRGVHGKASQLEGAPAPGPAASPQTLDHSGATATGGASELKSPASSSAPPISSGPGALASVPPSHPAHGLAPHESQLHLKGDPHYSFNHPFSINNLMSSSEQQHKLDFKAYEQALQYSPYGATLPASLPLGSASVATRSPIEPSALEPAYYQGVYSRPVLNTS
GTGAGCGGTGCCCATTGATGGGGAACCCACCCCCCACCTTATTCTTCCTCTTTAATGAATATTTTTATTGGAGCTCAAACTCCATGACTTACGTGCTCACTAAGTTTTCTTTTTTCCCCTTGTTTACTCTGTCTGTATGTATGTCAAAAGCTGGCAAAACCTCTAAAACTGTCAAGAAAATGCTTGAAAGTTGATTTGTCATAGTGCAAATTCATGATATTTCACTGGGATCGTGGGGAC: 0.302 ratio
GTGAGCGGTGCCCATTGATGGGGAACATCTTCCCCCTCTTCCTTGCCCCACCAGCTCACCTACGGGGGTTATTTGCACAAAGGAAAATAAATAAAGCCGGCATTCGTTAACCCTCTTCACGCGCATACTGCTGTTTGCTCTGGATGAATCATGGTCCTTTGGCGACGCCAGGCTCCGGGAGAGCAAAGCACCGTGTCAGGGCCATGATCCGGGGTGGCCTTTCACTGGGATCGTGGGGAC: 0.383 ratio
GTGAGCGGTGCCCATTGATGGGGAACATACAGCCTAGAACTCCTGGGCTCAAAAGATCCTCCCACCTCAGCCTCCTGAGTAGCTAGGACTACAGAGGGGGATGCCAACATGTGTGGCAATATTTACTTATTTATTTAGAAAAGAGGTCTCGCTTTGTTGCCCAGGCTAGTGTGCAGTGGCGCAATCTTGGCTCACTGCAACCTCTTCCTCCCAAGTTCATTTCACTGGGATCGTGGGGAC: 0.397 ratio
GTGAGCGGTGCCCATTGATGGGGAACATCTTCCCCCTCTTCCTTGCCCCACCAGCTCACCTTCCCGGGTTATTTGCAGATAGGAAAATAAATAAAGCCGGCATTCGTTAACGCAGTTCACGCGCATACTGCTGTTTGCTCTGGATCTAACATGGTCCTTTGGCGACGCCAGGCTCCGGGAGAGCAAAGCACCGTGTCAGGGCCATGATCCGGGGTGGCCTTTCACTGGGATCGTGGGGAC: 0.357 ratio
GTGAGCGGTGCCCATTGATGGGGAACATTAGGCAGATACAGGGACCTGAGACTTAGGTGGTTATTTTCTTCATCTCATCAGTGGGGACCTGGCTTCTTTGACTGCACCTTGATGTGCTTGTTTACACTGTTAGTATTTCCCCTTGTGGATACTGTAGGCTTATTTTATAGCCAGAGTGAGTAGGGGCAGGCTATCTGGCCAGTCGCCACCTCAGATTATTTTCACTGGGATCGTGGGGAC: 0.324 ratio

Block 2 — technique: RNA Bind-n-Seq; molecule type: RNA; matrix: in vitro; tested at: 365 nM; relative to: no-protein control; direction: higher = stronger binding; endpoint: RBNS enrichment (R)
Target: RNA binding protein fox-1 homolog 2, RRM domain, GST-SBP tag (RBFOX2, Homo sapiens, UniProt O43251-10, residues 100-194)
Notes: natural RNA segment, single round, ends assumed
Target sequence (chain): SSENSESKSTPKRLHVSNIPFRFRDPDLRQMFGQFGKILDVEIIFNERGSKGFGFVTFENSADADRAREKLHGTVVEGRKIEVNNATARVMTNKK
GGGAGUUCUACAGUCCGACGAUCUCGUGUGUCUCUACCACAGCUGACUCUCAGCUGGCUAAUGGAGAAAAUGUGAGGAAUUACCUGUCAAAUUAGAUUGAGCUCAGAGUAAAUAGAUGAGCACAUUUAUAACUUGGAAUUCUCGGGUGCCAA: 0.224
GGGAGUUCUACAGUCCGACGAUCGCAAAGCUUCUAAAGACCGAAGGAAUCUUUCCCUCACCCCCACCCCCUCGCCUUGGUGAUUUCUUGUUUGAUUUUGCCUCAUGGUCAAGAAAGGAGGGGGAAAAUCCAGCUGGAAUUCUCGGGUGCCAA: 0.248
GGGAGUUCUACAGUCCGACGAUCUUUUUUCCUUGCUCACAUUAAAAGGAAGCAUGGAGUUCUAAUGCUCCCAUAAACUAUGUAUUUUGGCAAGACACUUCACUACUCCAGGUCUCACUUUCCCCAUCUGUAAAUGGAAUUCUCGGGUGCCAA: 1.01
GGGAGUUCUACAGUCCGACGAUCCCAGAAAAGUGGCUCUCUUUGGUAGGGAGAGGGGCUCCAAUAUUUCGUUCUCUCCCCAUGGGGCACUGACAGAGAAAUGAAAUAGUUUUAUCUGGAAAAUUCCAGAGCUAUGGAAUUCUCGGGUGCCAA: 0.495
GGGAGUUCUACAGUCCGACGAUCUAAGAACUCUGUAAUAGAAUGUCAUUGUGGAUGUUACCUUUUUCAGAUCCAAGCAUAUAAAAAGCCUGUAUAUUUUUUAAAAACACAUCUUAACUCCACGCUUUACGAUAUGGAAUUCUCGGGUGCCAA: 1.37
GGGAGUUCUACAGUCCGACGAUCUGGUGUGAAAUGAUCUAUGGCCUGUUUCUUACACAGGAAGCCCCCUGAACCUCCUGUACAUGUGUUCAUGUUCCCAGCCAGCUCUGAGACCCAGGAACCAAAUAUUCCAUUGGAAUUCUCGGGUGCCAA: 0.361
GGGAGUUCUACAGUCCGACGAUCGGCACACUGGGCUAGGGACGAGGAAGGAGCAGCCACAAGUGGUAGAACUGCCUUGGUGGACACCAGCCUCGCCCUGUCUUUAUUUCCUGAAUGGUUUGUGAACUUGCUCAUGGAAUUCUCGGGUGCCAA: 0.414
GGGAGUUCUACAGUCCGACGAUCUACCCAUCCUGGUCCUAUGCUGGCAGGAACACACGCGAGUGUCACUGAUUGGCCUCCUUCUGGGAUCCCAGGCUGCUGAGGAAGCUACUGCUACAUCCCUACCCCAAGGGUGGAAUUCUCGGGUGCCAA: 0.354

Block 3 — technique: RNA Bind-n-Seq; molecule type: RNA; matrix: in vitro; tested at: not given; relative to: input RNA pool; direction: higher = stronger binding; endpoint: bound/input enrichment
Target: RING finger protein unkempt homolog, zinc fingers 1-6, GST-SBP tag (UNK, Homo sapiens, UniProt Q9C0B0, residues 30-357)
Sequence of UniProt Q9C0B0 (30-357, looked up): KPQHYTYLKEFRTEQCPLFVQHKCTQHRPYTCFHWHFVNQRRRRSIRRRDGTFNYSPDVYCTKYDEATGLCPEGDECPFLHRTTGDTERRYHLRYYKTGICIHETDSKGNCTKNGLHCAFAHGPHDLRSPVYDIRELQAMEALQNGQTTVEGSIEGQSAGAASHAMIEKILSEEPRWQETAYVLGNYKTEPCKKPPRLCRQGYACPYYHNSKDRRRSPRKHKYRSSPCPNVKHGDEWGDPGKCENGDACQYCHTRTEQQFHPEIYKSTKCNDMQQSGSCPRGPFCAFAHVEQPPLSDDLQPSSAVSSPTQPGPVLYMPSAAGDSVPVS
Notes: RNA with constant flanks, human-mouse chimeric sites, ends assumed
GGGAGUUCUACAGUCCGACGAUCCAGGGCAUCAUCUCUCGUGCUGUUAGACACCUUUUUAAGAGUAUUGAUGAGAAAAAGACCUCAGCGAUUAAAAACGGGCUUCCUGCUCCUGAAUUCAAAGUGAAUGCCCAGUUCCUAGAGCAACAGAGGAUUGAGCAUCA: 0.243 ratio
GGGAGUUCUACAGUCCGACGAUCUCUGGUCACACUCGUGUGUAUGGUGUUUGCUUUGUGGACACUUCACUGGGAAAGUUUUUCAUCGGCCAGUUUUCGGAUGACCGCCACUGUUCCAGAUUUAGGACUCUAGUGGCUCACUAUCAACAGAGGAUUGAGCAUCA: 0.158 ratio
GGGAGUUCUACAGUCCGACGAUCGUAGCUGGCCAUUAGGAAAUGCUGGUAAUUUCAGUCACUUGCUGAUGACUUCUGAUGUCCCAGCAAAUGUUGGCAUUGUUGACUGCUGAGAAGAUACUUCUGAGGACCCACGUCUAAGGUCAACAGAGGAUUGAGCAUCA: 0.198 ratio
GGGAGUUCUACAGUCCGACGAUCCUGGCCUGGCCCUCCCCUCUAGUGACCUUUCGUAUAGUCACUGCUUCUGCAUCAGAUACUUUCAGCUGCAACUCCCUGCAGGGUGGGGCACCCAUUUCAGGCAGAAGGUUUUGGUACCCUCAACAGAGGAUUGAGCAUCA: 0.369 ratio
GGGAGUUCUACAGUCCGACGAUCCGCGUCCUCUCGCUGCUGCGGAGCCCGAGCUGGGAACCAUUCCGGGACUGGUACCCUGCACACAGCCGCCUCUUCGAUCAAGCUUUCGGGCUGCCCCGGUUGCCCGAUGAGUGGUCGCAGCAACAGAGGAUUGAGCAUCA: 0.137 ratio
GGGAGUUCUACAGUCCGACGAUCGACCCACAGUGGUCUGAGGAGCAACUCAUUGCUGCAAAAUUCUGUUUUGCUGGCCUUGUUAUAGGGCAGACUGAAGUGGACAUCAUGAGUCAUGCUACACAAGCUAUUUUUGAAAUUCUGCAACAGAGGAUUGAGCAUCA: 0.169 ratio
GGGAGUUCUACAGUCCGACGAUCAAAGAAUGGAUAGAGUGUGCACACGGGAUCGGUGGGACUCGGGCAGAAAAGGAGUGCAAGAUAGAGUUCGAUGACUUCGAAGAGUGCUUGCUUCGGUACAAAACGAUGAGGCGAAUGCAUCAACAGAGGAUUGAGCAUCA: 0.449 ratio
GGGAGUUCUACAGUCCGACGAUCAAAGCCCAAGUAUUUUGAAAAAAUUCAAACAGAUUUGACAAGGGUAGCCAGCUUGGAGUCUAGCAACUUGCCAAUGUGUUUACCAAUUUUGGGGGCUGUUUUUCUUUUCUUCUUUCAAAUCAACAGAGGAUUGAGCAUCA: 0.334 ratio

Block 4 — technique: competition protein-binding microarray; molecule type: double-stranded DNA, one strand shown; matrix: in vitro; tested at: 2 µM; with: Pho4 competitor, 0.05 µM; direction: higher = stronger binding; endpoint: fluorescence intensity
Target: Centromere-binding protein 1, full length, His-tagged (CBF1, Saccharomyces cerevisiae, UniProt P17106, residues 1-351)
Sequence of UniProt P17106 (whole entry, looked up): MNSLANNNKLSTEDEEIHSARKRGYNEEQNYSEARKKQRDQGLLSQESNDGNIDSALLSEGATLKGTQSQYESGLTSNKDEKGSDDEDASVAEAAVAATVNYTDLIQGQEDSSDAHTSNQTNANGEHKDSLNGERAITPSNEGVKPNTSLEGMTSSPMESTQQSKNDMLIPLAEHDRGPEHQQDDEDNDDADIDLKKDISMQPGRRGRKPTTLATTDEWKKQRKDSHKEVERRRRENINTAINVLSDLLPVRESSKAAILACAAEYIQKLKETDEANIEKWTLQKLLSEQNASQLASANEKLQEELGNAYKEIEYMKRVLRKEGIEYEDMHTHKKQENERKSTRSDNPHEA
Notes: whole 60-bp probe, lowest competitor level
TCGCCACCTCTGGTACCCGTGACGAAGCCAAGAAATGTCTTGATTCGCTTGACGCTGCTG: 208 a.u.
TCGGACGATAACGCCGGCGTGATGGCCACAGAAACAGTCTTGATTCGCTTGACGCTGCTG: 97.2 a.u.
CGGCTACTGAATCTTTACATTACTTGAGCTGAGAAGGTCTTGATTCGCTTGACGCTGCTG: 74.3 a.u.
ATTTGACCATTATTCCACGTGTTGAGTTCTCAGAATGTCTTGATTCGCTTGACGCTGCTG: 747 a.u.
TGAAACAATTCGCGTCGCGTGGGACCCGAAAAGGGCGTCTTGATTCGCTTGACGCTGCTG: 103 a.u.
TTGGATGCTTTGGACGACGTGATGGACCATTTGGAAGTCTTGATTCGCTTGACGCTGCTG: 88.9 a.u.
GACACATCTCTGAGCAGCATGACAGGGTTGTCCCAAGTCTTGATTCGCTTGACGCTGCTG: 83.2 a.u.
GCTTTGGCATATTGCCACATGCGAATGTACATGTCCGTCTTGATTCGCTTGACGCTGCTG: 91.2 a.u.
TTTGTTTTCATCTGGGTTGTGACAGTTGATGATAACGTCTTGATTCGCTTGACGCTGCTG: 83.9 a.u.
TATCAGATCAGCCATCACGTGCCGAGTCGTTAGAAAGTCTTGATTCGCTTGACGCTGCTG: 4120 a.u.
CGGGGTTAAGTTTGAATGGTGGGTGGCTTGCAGCAGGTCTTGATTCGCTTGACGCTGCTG: 66.9 a.u.
AAACACTTCCACCTACACGTGAGAGCCAAAGCCATAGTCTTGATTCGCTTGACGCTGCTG: 1030 a.u.
CGCCGACGACGCCGACACGCACCGTTCTACTCGCTCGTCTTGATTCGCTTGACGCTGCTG: 53.3 a.u.
AAAGCGGTAATTTTTCACGTGCCGTCAAATATCTATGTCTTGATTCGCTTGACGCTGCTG: 1760 a.u.
GTAACCCAGTAACATCAGGTGCACCATCACTACAAAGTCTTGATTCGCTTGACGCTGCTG: 153 a.u.
CTTCTGTAAATTTGTCAAGTGGGTGGACGCGCCCCGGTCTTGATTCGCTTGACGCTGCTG: 81.6 a.u.
CTTCTGAAAGTTTAACACGTGCCGTATCTACGGCTGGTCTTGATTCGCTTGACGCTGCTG: 1780 a.u.
CTATTGATGAACAATCACGGCCTCTTGGCTAAGCCCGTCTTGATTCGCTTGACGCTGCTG: 70.7 a.u.
CGGGGTTAAGTTTTTCACGTGGAGTGCTTGCAGCAGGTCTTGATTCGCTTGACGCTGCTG: 374 a.u.

Some of these lines once more (block 1):
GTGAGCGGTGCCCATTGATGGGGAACATTAGGCAGATACAGGGACCTGAGACTTAGGTGGTTATTTTCTTCATCTCATCAGTGGGGACCTGGCTTCTTTGACTGCACCTTGATGTGCTTGTTTACACTGTTAGTATTTCCCCTTGTGGATACTGTAGGCTTATTTTATAGCCAGAGTGAGTAGGGGCAGGCTATCTGGCCAGTCGCCACCTCAGATTATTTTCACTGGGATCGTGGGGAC: 0.324 ratio
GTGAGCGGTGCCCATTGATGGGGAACATCTTCCCCCTCTTCCTTGCCCCACCAGCTCACCTACGGGGGTTATTTGCACAAAGGAAAATAAATAAAGCCGGCATTCGTTAACCCTCTTCACGCGCATACTGCTGTTTGCTCTGGATGAATCATGGTCCTTTGGCGACGCCAGGCTCCGGGAGAGCAAAGCACCGTGTCAGGGCCATGATCCGGGGTGGCCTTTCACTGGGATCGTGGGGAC: 0.383 ratio
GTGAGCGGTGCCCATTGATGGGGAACCCACCCCCCACCTTATTCTTCCTCTTTAATGAATATTTTTATTGGAGCTCAAACTCCATGACTTACGTGCTCACTAAGTTTTCTTTTTTCCCCTTGTTTACTCTGTCTGTATGTATGTCAAAAGCTGGCAAAACCTCTAAAACTGTCAAGAAAATGCTTGAAAGTTGATTTGTCATAGTGCAAATTCATGATATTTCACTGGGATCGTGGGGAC: 0.302 ratio
